Measured values collected from several papers.
Parts stem from different laboratories: compare values within a part only.

Study 1
Target: Prothrombin, mature alpha-thrombin (F2, Homo sapiens, UniProt P00734)
Method: aptamer microarray, sandwich
Form: DNA with 2'F-ANA
Matrix: in vitro
Tested at: 200 nM
Setting: whole 15-mer aptamer, many near background
Added: Cy3 exosite-II aptamer, 400 nM
Direction: higher = stronger binding
Quantity: mean fluorescence intensity
Strand: GGTTGGTGTGGTTGG
2'F-ANA at 1 2 4 14 15: 53.2 a.u.
2'F-ANA at 1 4 7 8 9 12 13 14 15: 67.3 a.u.
2'F-ANA at 1 2 6 7 9 11 13: 90.8 a.u.
2'F-ANA at 2 5 8 10 11 12 13: 104 a.u.
2'F-ANA at 1 2 3 4 5 6 7 8 9 10 11 15: 54.3 a.u.
2'F-ANA at 3 4 9 10 12 13 14: 232 a.u.
2'F-ANA at 1 3 5 7 9 10 13: 47.1 a.u.
2'F-ANA at 2 3 6 7 8 15: 800 a.u.
2'F-ANA at 2 6 7 12 13 15: 543 a.u.
2'F-ANA at 2 3 4 6 8 9 10 11 12: 247 a.u.
2'F-ANA at 3 5 7 9: 136 a.u.
2'F-ANA at 2 4 5 6 7 8 9 12 13 15: 126 a.u.
2'F-ANA at 1 2 4 5 6 9 10 11 12 15: 55.9 a.u.
2'F-ANA at 4 6 12 15: 481 a.u.
2'F-ANA at 3 4 7 8 11 12 13 14 15: 417 a.u.
2'F-ANA at 1 2 4 5 6 7 9 10 12 13 15: 51.4 a.u.
2'F-ANA at 3 14 15: 616 a.u.
2'F-ANA at 1 4 5 7 10 12 14: 44 a.u.
2'F-ANA at 1 4 5 6 7 8 9 10 12 14 15: 96.7 a.u.
2'F-ANA at 1 2 3 4 6 8 11 12 13: 216 a.u.
2'F-ANA at 1 3 4 7 10 11 12 13 15: 75.4 a.u.
2'F-ANA at 3 4 8 9 10 13 14 15: 195 a.u.
2'F-ANA at 2 4 5 7 9 12 13 14 15: 45 a.u.
2'F-ANA at 1 7 8 14: 68.2 a.u.
2'F-ANA at 1 2 3 6 7 8 11 12 13 14: 94.7 a.u.

Study 2
Target: Ras GTPase-activating protein-binding protein 1, C-terminal RGG region (G3BP1, Homo sapiens, UniProt Q13283)
Chain of UniProt Q13283 (whole entry, looked up): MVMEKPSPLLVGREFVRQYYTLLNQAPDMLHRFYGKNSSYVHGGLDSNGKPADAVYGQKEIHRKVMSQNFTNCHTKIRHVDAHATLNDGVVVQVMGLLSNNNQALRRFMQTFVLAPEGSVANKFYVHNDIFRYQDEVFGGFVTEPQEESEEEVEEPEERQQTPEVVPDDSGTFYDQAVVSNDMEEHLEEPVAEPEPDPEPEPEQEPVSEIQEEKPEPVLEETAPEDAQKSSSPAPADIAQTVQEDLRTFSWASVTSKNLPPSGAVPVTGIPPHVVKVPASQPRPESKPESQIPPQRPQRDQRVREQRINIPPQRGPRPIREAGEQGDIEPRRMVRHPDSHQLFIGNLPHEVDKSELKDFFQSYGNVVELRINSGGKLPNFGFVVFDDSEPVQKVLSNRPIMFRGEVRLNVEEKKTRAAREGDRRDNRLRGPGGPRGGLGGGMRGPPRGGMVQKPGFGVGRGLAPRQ
Method: RNA Bind-n-Seq
Form: RNA
Matrix: in vitro
Tested at: 1 µM
Setting: whole 134-nt RNA, ends assumed
Added: 150 mM KCl
Reference: input library
Direction: higher = stronger binding
Quantity: log2 enrichment
Shared flanks, not repeated: GGGAGUUCUACAGUCCGACGAUC … UGGAAUUCUCGGGUGUCAAGG
UCAAGUCCUGUGCUACACAUCGUAUGUACCGAAUCGGUUUGGGUUUGGGGUUUGGAAAGUAUUAUGUUACGCCGUUCGGAUCUGCACUUC: -1.01
CUGUGCUACACAUCGUAUGUACCGAAUCAAAGUGUGUGUGUGUGUAAAGUGUGUGUGUAAAAAAGUAUUAUGUUACGCCGUUCGGAUCUG: -0.467
UGGCCCUGGUGGCAUGCGGGGAGGAAGAGGUGGCCGCAUGGAUCGUGGUGGUCCCGGUGGAAUGUUCAGAGGUGGCCGUGGUGGAGACAG: 2.4
CCUGUGCUACACAUCGUAUGUACCGAAUCAAAUUUUUUUAAACCCCCCCAAAUUUUUAAAAAAGUAUUAUGUUACGCCGUUCGGAUCUGC: -0.804
CACAGACAACACGCACCCAAAAAGACACAGAGGGAAGGGGUUGGGAUGGGGACAGGGUGCACAGCAGGGCGGGGUAGGACCCCAGCCCCU: -0.326
AGUCCUGUGCUACACAUCGUAUGUACCGAAUCGGGGUUUUUGGGGUGGGGUUUGGGGAAAGUAUUAUGUUACGCCGUUCGGAUCUGCACU: 1.23
AAGUCCUGUGCUACACAUCGUAUGUACCGAAUCGGCCCCGGCCCCGGGGCCCCGGGAAAGUAUUAUGUUACGCCGUUCGGAUCUGCACUU: -2.21
UAACUUUAGAGGAGGAUCUGAUGGAUAUGGCAGUGGACGUGGAUUUGGGCAUGGCUAUAAUGGGUAUGGAGGAGGACCUGGAGGUGGCAA: -0.765
AAGUCCUGUGCUACACAUCGUAUGUACCGAAUCGGGAAAAGGAAAAGGGAAAAGGGGAAAGUAUUAUGUUACGCCGUUCGGAUCUGCACU: -1.17
ACCAUGCAGGUGGGCAUCUUUGGGAAGUGGGGCAAGGGGAAAAUAGGGAGGGGGGUAACACUUUGGGAACAGGUGGUCCCAGGUCGUUUC: -0.844
AGUCCUGUGCUACACAUCGUAUGUACCGAAUCGGGGUUUUGGGGUUUUGGUUUUGGGGAAAGUAUUAUGUUACGCCGUUCGGAUCUGCAC: -0.368
CAAGUCCUGUGCUACACAUCGUAUGUACCGAAUCGGGGUUUGGGUUUGGUUUGGGGAAAGUAUUAUGUUACGCCGUUCGGAUCUGCACUU: -0.456
CACAGACAACACGCACCCACACAGACACAGAGGGAAGGGGUUGGGAUGGGGACAGGGUGCAGAGCAGGGCGGGGUAGGACCCCAGCCCCU: -0.465
CACAGACAACACGCACCCACACAGACACAGAGGGAAGGGGUUGGGAUGGGGACAGGGUAAACAGCAGGGCGGGGUAGGACCCCAGCCCCU: -0.429

Study 3
Target: RING finger protein unkempt homolog, zinc fingers 1-6, GST-SBP tag (UNK, Homo sapiens, UniProt Q9C0B0, residues 30-357)
Method: RNA Bind-n-Seq
Form: RNA
Matrix: in vitro
Tested at: not given
Setting: RNA with constant flanks, human and mouse sites, ends assumed
Reference: input RNA pool
Direction: higher = stronger binding
Quantity: bound/input enrichment
Shared flanks, not repeated: GGGAGUUCUACAGUCCGACGAUC … CAACAGAGGAUUGAGCAUCA
Residues (chain): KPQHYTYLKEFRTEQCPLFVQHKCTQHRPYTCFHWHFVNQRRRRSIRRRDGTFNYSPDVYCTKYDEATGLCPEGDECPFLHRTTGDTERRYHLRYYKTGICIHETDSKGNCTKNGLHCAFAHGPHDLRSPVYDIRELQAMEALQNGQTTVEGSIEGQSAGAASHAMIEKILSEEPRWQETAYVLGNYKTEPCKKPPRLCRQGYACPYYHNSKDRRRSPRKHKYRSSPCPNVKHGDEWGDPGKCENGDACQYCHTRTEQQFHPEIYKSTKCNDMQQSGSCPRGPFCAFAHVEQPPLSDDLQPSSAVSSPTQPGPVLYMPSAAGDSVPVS
UUGAAAACACAGCACUUAGGUUGGCUUAGCUGCAGCCUCCUCAGAGGUCAGAUUAUUUAUUUAAAAUUACUGGUUGCAUCAAGAACCCAUAGGGUGUACAAACGGUUCUAUACAAUCUGC: 0.95 ratio
UCUGGCAUUCUCAAUGACAGCAUGUGUGGCGGCAUGCAGCUGCUUCCAGAUCCCUUAUAUUCUCUUCCCACGGACAACACGUACCUUUUAACAAUCACGUCCACGGAUAAUGGCAGAAUC: 0.149 ratio
CAGGCUAUCUCUCAGCAGCACCUACAGGAAGCAGGUGCACGGGAGUGGAGCUCUCAGAGUGCAUCCAUGUCAGAGUCACUGUCUAUCCCUGCAUCCCUGAAUGAUGCAGCUUUGGCUCAA: 0.0502 ratio
GGAGACAAGUGCACUAAAUCUUUACCUUAUGAACCUUACAAGGCCCUCCAUGGGCCUCUGCCUCUUUGUCUUCUUAAAGGUAAGAGGGCUCACUCCAAAUCUCUGGACUACCUCAAUCUA: 0.18 ratio
GAUGUAGUAGUCAACAUUUUUAUUAAUAGUUUUGGAUCCAUUCAAGAGACAACAAUGGACUAUAGAGUUAACAUUUUCUUGAGACAGAAAUGGAAUGACCCCAGACUCAAGCUACCUAGU: 4.67 ratio
CUUCCUGAUUCCCCACCCUGCAAAGGCCUGGAACUGGCUGUGGGGCUCUGAGGCAUGCUGAAGGACAAAAGGUUACAGAGAUCCGACUUCAAAAGGCAGGGUCUGAGUCUGGCAGGUGGA: 0.389 ratio
ACUGGUGGUGCAGCCUCUGUGAAGCAGCACCAUUCAAGUGCCCAUAACAAAGAUAUUGCUUUAGGGGUAUUUGAUGUGGUGGUGACGGACCCCUCAUGCCCAGCCUCGGUGCUGAAGUGU: 0.0841 ratio
AAAGAGGCAAAACCUGAUGAAUUAAUGGAUUCCAAAUUGAGAUGCGUAUUUGAAAUGCCCAAUGAAAAUGAUAAAUUGAAUGAUAUGGAACCUAGCAAAGCUGUUCCACUGAAUGCAUCU: 0.187 ratio
GAGGCUUGCAAAGACAUCCUGCUGUUUAAGAAUCUGGAUCCGGAGCAGAUGUCUCAAGUAUUAGAUGCCAUGUUUGAAAAAUUGGUCAAAGAUGGGGAGCAUGUAAUUGAUCAAGGUGAC: 0.436 ratio
UUGAAGUACAAUCAAGCUACACAGACCUUCCACCAGUGGCGAGAUGCUAGACAGGUGUAUGGUCUCAACUUUGGCAGCAAAGAGGAUGCCAAUGUCUUCGCAAGUGCCAUGAUGCAUGCC: 0.13 ratio
CAUCUUAAAUUUUUGCUGGAAGUGGAGUCAUGAGACUAAAGAUAUCUCUUUUAAAAGAACCAAAGCAUAUCCUUUUAAUGCUUAUAAAUCUUAUUGGAUUUUCUUAAUUAUAGUAUUGUU: 7.1 ratio

Study 4
Target: RNA binding protein fox-1 homolog 2, RRM domain, GST-SBP tag (RBFOX2, Homo sapiens, UniProt O43251-10, residues 100-194)
Method: RNA Bind-n-Seq
Form: RNA
Matrix: in vitro
Tested at: 365 nM
Setting: natural RNA segment, single round, ends assumed
Reference: no-protein control
Direction: higher = stronger binding
Quantity: RBNS enrichment (R)
Shared flanks, not repeated: GGGAGUUCUACAGUCCGACGAUC … UGGAAUUCUCGGGUGCCAA
Construct (chain): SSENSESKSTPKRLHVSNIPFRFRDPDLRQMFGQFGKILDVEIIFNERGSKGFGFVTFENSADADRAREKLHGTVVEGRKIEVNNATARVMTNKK
CUUUUGCAGCAUGGAUCAAACAUUGGCUUACUGUGCUAAUGUGUGAAGAGAAAAAAUUCUCUAAAGCAGGUGAGCUUUAAUGAACAAAUGUGUAUUUUAUCUGAGUUUGA: 3.06
UGGGCUCCAGUAAUGCUUUCUGGUGGGUAAAAUUCCACAUUCAGGCCACGAGAGCAUCUACAGUUUGUACUCUGGGGCUGCAGGCAUCCUGGGACGCUGUACGCAAUUCA: 0.828
CUCCAUCUGAUCGUCCUUUCAGUUUCCCCUUCACCACUGGAUCUCGAGGAGGAGAUGGCCUAGUGUUACGGCUCGAGACAGGAGGCCAGCCCAGGGGGUUCUGCUUAUGU: 0.357
CAGAUGGUGUCUCAGAUGCUUUGGGGAAUCUUUAACAGCUGAAUUUGAGUCAGUCCUCUUAGGCUGCACCUCCAGCCUCUGCAGAUCCCCCCUCAUUUCCCAUGGAUGGU: 0.304
AUAAGCACAGACAUGUGGAAAGUGCCUGACACAAAGCAGGUGCUCAAUAAAAGAGAGCUAUUGAAGUGUAUUUGUUGUUUUCUUGCUUAAAAACAAGGAUUCUUGGGGGU: 0.477
AGUGUAGGGCAGAGCGUUGACCCACUGGCUAGUGCUUGACUUGGGAAUCAGGACAGUACCUGUACAGGCACGGGGACCCGCUCCGUCCGUGCGCCGCCCUAUAUUGAGGG: 0.767
AAAACCAGAACCUGGCAAGGGACUCACUAGCCUGGAUGGCCCAUGGGAGACCAGGACAGAUGAGAAGGAGCAGAAGAGCCCUGUGCCCAGAAGACCCAACUGGUGCCAAG: 0.36
UGUGGAAAUUGAUUGGGAUUUGAUUGUCAGCAACUUGUAUGAGAUUCAUUAAAUGGCCCUGGCAUACAGCCACACACAGCUGCAAAUCUCAGCCAAAGAGGGAAAGGAAA: 0.442
UUCUGGCUUUUCUGAGGGCUAGGGCAUGGUGCCCACCUCUCAAGUAUAAGAAACUGCAUCCUGCCUCCAGCCCCCUUGGGGCAGGGAUUGGCUUGGAACAGAGGUUGGCC: 0.279
GGUGUUAUGUAUAAUGCUUUGUUAAAGAACCCCCUUUCCGUGCCACUGGUGAAUAGGGAUUAAUGAAUGGGAAGAGUUCAGUCAGACCAGUAAGCCCUUCUGGGUUUGAG: 0.867
CUGACACGGCUCUUGUCUAGGACCAGGGCGGCACAUCCCACCAGCGCCAUCUUCCUGGACAGAGUGAGCUGUCAGUCACUCCCCAGGUUUUUUUUGUUUUUGGGGUUUUU: 0.642
GUUACAAUAGAUAGUGUCAUGUUGCAGGUUCAACGUUAUUUACAUGUAAAUAGACAAAAGGAAACAUUUGCCAAAAGCGGCAGAUCUUUACUGAAAGAGAGAGCAGCUGU: 0.47

Excerpt of the above (study 4):
AGUGUAGGGCAGAGCGUUGACCCACUGGCUAGUGCUUGACUUGGGAAUCAGGACAGUACCUGUACAGGCACGGGGACCCGCUCCGUCCGUGCGCCGCCCUAUAUUGAGGG: 0.767
GUUACAAUAGAUAGUGUCAUGUUGCAGGUUCAACGUUAUUUACAUGUAAAUAGACAAAAGGAAACAUUUGCCAAAAGCGGCAGAUCUUUACUGAAAGAGAGAGCAGCUGU: 0.47
CUUUUGCAGCAUGGAUCAAACAUUGGCUUACUGUGCUAAUGUGUGAAGAGAAAAAAUUCUCUAAAGCAGGUGAGCUUUAAUGAACAAAUGUGUAUUUUAUCUGAGUUUGA: 3.06
CAGAUGGUGUCUCAGAUGCUUUGGGGAAUCUUUAACAGCUGAAUUUGAGUCAGUCCUCUUAGGCUGCACCUCCAGCCUCUGCAGAUCCCCCCUCAUUUCCCAUGGAUGGU: 0.304
UGUGGAAAUUGAUUGGGAUUUGAUUGUCAGCAACUUGUAUGAGAUUCAUUAAAUGGCCCUGGCAUACAGCCACACACAGCUGCAAAUCUCAGCCAAAGAGGGAAAGGAAA: 0.442
AAAACCAGAACCUGGCAAGGGACUCACUAGCCUGGAUGGCCCAUGGGAGACCAGGACAGAUGAGAAGGAGCAGAAGAGCCCUGUGCCCAGAAGACCCAACUGGUGCCAAG: 0.36
AUAAGCACAGACAUGUGGAAAGUGCCUGACACAAAGCAGGUGCUCAAUAAAAGAGAGCUAUUGAAGUGUAUUUGUUGUUUUCUUGCUUAAAAACAAGGAUUCUUGGGGGU: 0.477
CUCCAUCUGAUCGUCCUUUCAGUUUCCCCUUCACCACUGGAUCUCGAGGAGGAGAUGGCCUAGUGUUACGGCUCGAGACAGGAGGCCAGCCCAGGGGGUUCUGCUUAUGU: 0.357
